# Assay results pooled from the literature.
# A part holds a random share of what one study measured.

# Study 1
# Target: Centromere-binding protein 1, full length, N-terminal tag (CBF1, Saccharomyces cerevisiae, UniProt P17106, residues 1-351)
# Sequence of UniProt P17106 (whole entry, looked up): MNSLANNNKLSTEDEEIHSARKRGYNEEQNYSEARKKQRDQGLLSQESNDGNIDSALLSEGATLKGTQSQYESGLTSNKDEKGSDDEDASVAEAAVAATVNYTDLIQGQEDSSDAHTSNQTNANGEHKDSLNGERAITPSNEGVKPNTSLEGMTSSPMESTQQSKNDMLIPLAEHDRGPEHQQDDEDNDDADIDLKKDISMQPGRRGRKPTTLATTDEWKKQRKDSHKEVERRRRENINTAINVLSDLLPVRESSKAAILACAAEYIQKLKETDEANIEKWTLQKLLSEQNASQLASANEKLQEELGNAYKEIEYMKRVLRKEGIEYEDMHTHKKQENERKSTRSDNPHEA
# Technique: protein-binding microarray
# Molecule type: double-stranded DNA, one strand shown
# Matrix: in vitro
# Tested at: 0.8 µM
# Setting: whole 60-bp probe, no competitor
# Reading: higher = stronger binding
# Constant ends, left off below: … GTCTTGATTCGCTTGACGCTGCTG
Strand,fluorescence intensity
CTACTGGATGATTATCAGGTGTAAGCAATAAGATTC,668 a.u.
CTAAAGGACTGCGCAGGTGAGGGTTTTTACGACTTC,539 a.u.
TGTACGAAGCTATTTTACGTGATTATAGTAGTTAGG,561 a.u.
CCTAACTACTATAAACCCGTGCAATAGCTTCGTACA,594 a.u.
CTAGAGCAATTGCATCAGTTGGCCTTAGCTCAATTC,458 a.u.
CTAAAATTTTTCAGTCACCTTTAACGAAAATCATTC,593 a.u.
GAACTCAGTAGAATACACGTCACAGAAAGCTAGTAG,841 a.u.
CTAAAACAGAGCAGTCATATGATCAAAATAAAGTTC,2590 a.u.
GAACTTTTCGCGGCGCACGTGCATGACGGTAAATAG,12200 a.u.
GAATTTAGCTGCCCCCACGTTATCTCTTCTTTTTAG,602 a.u.
CTACACACCCACACCCACACCACACCCACACCCTTC,517 a.u.
GAATATCTGCACTCAGCTGTTGTATTTCACTTGTAG,526 a.u.
TGTACGAAGCTATAGCACATGATTATAGTAGTTAGG,1250 a.u.
GAAAAAATTAGGGGACGCGTGGGGAGGGCCGGCTAG,488 a.u.
CTAAAGAAACGAATCCACCTGATTGCAGCTGTATTC,620 a.u.
CTATTCTCTTGGGTAAACGTGTAATTCGATGATTTC,564 a.u.
GAAGTACACTTTCATCACGCAGTACGGATTTTTTAG,524 a.u.
GAAATAATGCGTAGTCATGACACATTTCCGATCTAG,537 a.u.
GAAGGCAAAACGACCCACGTGGCAGAGTTGGGTTAG,4670 a.u.

# Study 2
# Target: Interferon regulatory factor 5, full length, phosphomimetic (IRF5, Homo sapiens, UniProt Q13568-2, residues 1-514, K96S/S451D/S453D/S456D/S462D)
# Technique: protein-binding microarray
# Molecule type: double-stranded DNA, one strand shown
# Matrix: in vitro
# Tested at: 250 nM
# Setting: 60-bp whole probe
# Together with: salmon DNA 0.4 mg/ml
# Baseline: random background probes
# Reading: higher = stronger binding
# Constant ends, left off below: GCCTAGCAC … GTCTTGATTCGCTTGACGCTGCTG
Strand,log fluorescence [z-score]
TTAGGTATCGACACTCGGTTAGTGCTA,2.35
TTTGAACTGGGGTATCGATTAGTGCTA,2.28
TCATCTTTCCACTTGTCACTGTGCTAG,1.33
TCATGTCTGTTTTTGCTACTGTGCTAG,1.03
GACGGTATCGGACTGGGGAAGTGCTAG,1.21
GTTCTACCTCTGCCTTTTGTGTGCTAG,0.227
GACGGGTTCGGTTCCGGGACGTGCTAG,-0.225
AGCACTCTTCTTTTTTTTCTGTGCTAG,0.943
CCAACACTCGGTTTCCAAATGTGCTAG,0.33
TTGGATCTCAGTCTCGATTAGTGCTAG,0.534
TTAGGTTCCGACACTGGGTTAGTGCTA,0.177
GACGAACTGAGACCGGAGACGTGCTAG,-0.414
GACGGTTTCGACTATTGGGACGTGCTA,5.81
GACGGACTGCTACTGCTGACGTGCTAG,-0.756
GACGGTCTCCTTTTCCAGACGTGCTAG,-0.0207
GACGGACTGCTTCTCCTGCCGTGCTAG,-0.392
GACGATTCCAGTTTCGAGGCGTGCTAG,4.27
ATTCTTTGCTCATTTTTCAGGGTGCTA,0.962
TCATGTTTCTCAACCATACTGTGCTAG,0.563

# Study 3
# Target: RNA binding protein fox-1 homolog 2, RRM domain, GST-SBP tag (RBFOX2, Homo sapiens, UniProt O43251-10, residues 100-194)
# Technique: RNA Bind-n-Seq
# Molecule type: RNA
# Matrix: in vitro
# Tested at: 365 nM
# Setting: natural RNA segment, single round, ends assumed
# Baseline: no-protein control
# Reading: higher = stronger binding
# Constant ends, left off below: GGGAGUUCUACAGUCCGACGAUC … UGGAAUUCUCGGGUGCCAA
# Target sequence (chain): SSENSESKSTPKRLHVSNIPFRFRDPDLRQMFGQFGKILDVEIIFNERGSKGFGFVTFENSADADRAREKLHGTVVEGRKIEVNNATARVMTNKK
Strand,RBNS enrichment (R)
CAGGCACUUUUCAUGCUGUUUAAAAGACUGUGUAUCAAAUUGUGCACUUUAAGUAUGUGCAGUUUGUUGUAUGUCAAUUAUACCUCAAUAAAUCUGUAAUAAAAAACUAA,0.276
CCGGAGGCUCUGGGGGGAGGGCAGCCUUUCAGUCAGCCCCCAUGCCUGCUGGGCUCUGGGCAGCCCUGCAGUUCCCUCUCUGGCUCUUCCACUCUCUGUGGGGUCCUGCG,0.514
AGAUCCCAGUCCACGAUGAUGAGUCAGGGAGACUCGAUAACUGCUCCUUGGCCAUUCAUUUUCCUCCAGCCCAUAGCUCUGCCCACUCCAGUGUCAAACACCGCCCAGGC,0.323
GCCCAACCCACCUUAGCAUGUAUCACUCUGUGGAGAAUAAAGCACCCUAUGUACACAGCCAAAAGCCGCACUGCCUGCGCCCCUGGAACCUGGGUCCGGCCUUCCUCAGC,15.1
CCCCAGGGAUCCCCCAGCUCCCCCAGCCCCUGGCUUCCUGACCCUGCGCCUCACCCUCAGACUGGUGACCAGGCUUCUGAAAGCCAUUCUGGAUCAGUUGGCUUUUUUUU,0.288
UUGACGCAUCAUCCUGUGAUGUUGAAAUGUCAAUUGCAGGAUGCUGAUGUUGUGCACGUCAAUCACCGGGCACUUGCAUACUCUUAGAAACAGUUCGACUUCGGUUACUG,1.19
AACCUAAGAAUGGGAGUUACAAAUAGUAAAGAAGCUUUUUUUUUUUUUUUAAUUUAAAGUUUUUUUAUGUAAGUUUUCCCACAUGAUGGGGCCUUGUUUUGCAUGUUGAU,28.8
UUAAUCAUUUCUUCUUUGUUUUGUGGUAAAGGGGAAAAAUUAAAAACCAGUUGGAACCCUUUUGUCUACUUUCUUUGUUAACUCUGAGUUUAUGAAUCUAACUAGUGACC,0.61

# Study 4
# Target: Histone acetyltransferase KAT6A, both winged helices, GST fusion (KAT6A, Homo sapiens, UniProt Q92794, residues 1-181)
# Technique: protein binding microarray
# Molecule type: double-stranded DNA, one strand shown
# Matrix: in vitro
# Tested at: not given
# Setting: 8-mer, flanks averaged, mean of 2 arrays, mostly near background
# Baseline: not given
# Reading: higher = stronger binding
# Target sequence (chain): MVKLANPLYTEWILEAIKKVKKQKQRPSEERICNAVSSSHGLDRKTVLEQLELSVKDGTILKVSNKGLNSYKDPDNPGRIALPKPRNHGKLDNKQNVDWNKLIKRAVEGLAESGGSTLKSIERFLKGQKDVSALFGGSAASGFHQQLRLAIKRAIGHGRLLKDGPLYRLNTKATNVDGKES
Strand,E-score
CAAGGCTC,-0.133
AAGGAGAT,0.00084
CGTCGGTC,0.225
CAGCTAAG,-0.146
AGGTTAAT,-0.181
ACCTCCGG,0.0326
ACGTTTCC,0.0732
AGCAGGTG,0.00439
ATCTGAAT,-0.0964
GGCATGGA,-0.127
AAGATTAG,0.0618
CTAACCAG,-0.229
CTAGGAAC,-0.15
TCTACCCA,-0.105
GGTTGATA,-0.0101
AATCTGTC,-0.103
GGTCTAGA,-0.1
GCTGTCTA,-0.00707
AGGTGGTG,-0.188
ACTTGCTG,-0.147
TGAAAGAA,-0.1
CGGACCAC,0.083
CCTCGCAC,0.018
AATCGTAG,-0.091
CCTTCTAC,-0.117

# A few entries again (study 1):
Strand,fluorescence intensity
CTAAAATTTTTCAGTCACCTTTAACGAAAATCATTC,593 a.u.
CCTAACTACTATAAACCCGTGCAATAGCTTCGTACA,594 a.u.
CTACACACCCACACCCACACCACACCCACACCCTTC,517 a.u.
GAATATCTGCACTCAGCTGTTGTATTTCACTTGTAG,526 a.u.
GAAAAAATTAGGGGACGCGTGGGGAGGGCCGGCTAG,488 a.u.
CTAGAGCAATTGCATCAGTTGGCCTTAGCTCAATTC,458 a.u.
TGTACGAAGCTATAGCACATGATTATAGTAGTTAGG,1250 a.u.
